Experimental data collected from several papers.
Each line is one published result; not all experiments were run side by side.
Cell line: HaCaT

SMILES	assay	setting	how to read	measurement	result
COc1cc(/C=C/C(=O)Oc2cc(C(F)(F)F)ccc2C(F)(F)F)ccc1O	Western blot, measured: SRD5A1	10 and 15 µM, 24 h	relative to: control	protein level	decreased
O=C(C[Se]C(=O)c1cc2ccccc2s1)Nc1cccc(C(F)(F)F)c1	cell growth or viability, MTS	48 h		IC50	32.1 µM
CCOC(=O)c1cn(CC(c2c[nH]c3cc(Br)ccc23)c2c[nH]c3cc(Br)ccc23)c(C)c1C(=O)OC	cell growth or viability, MTS	20 µM, 24 h		inhibition	11.8%
CC(=O)N[C@@H](CC(=O)O)C(=O)N[C@@H](CCC(=O)O)C(=O)N[C@@H](CCC(=O)O)C(=O)N[C@H](C(=O)NCC(=O)N[C@@H](CCC(=O)O)C(=O)N[C@@H](Cc1ccc(O)cc1)C(=O)O)[C@@H](C)O		concentration not given, added: UVA		cells, SA-β-gal positive	decreased
O=C(C[Se]C(=O)c1cccnc1Nc1cccc(C(F)(F)F)c1)Nc1cccc(C(F)(F)F)c1	cell growth or viability, MTS	48 h		IC50	28.7 µM
[BH3-][P+]1(C2CCCCC2)CCCCC1	cell growth or viability, MTT	72 h		IC50	96.1 µM
CO[C@@H]1[C@@H](OC(=O)c2ccc(C)[nH]2)[C@@H](O)[C@H](Oc2ccc3c(O)c(NC(=O)c4c[nH]c(C(=O)Nc5c(O)c6ccc(O[C@@H]7OC(C)(C)[C@H](OC)[C@@H](OC(=O)c8ccc(C)[nH]8)[C@H]7O)c(C)c6oc5=O)c4C)c(=O)oc3c2C)OC1(C)C	cell growth or viability, ATP luminescence	72 h		IC50	~15 µM
CCOC(=O)c1c(C(=O)OC)cn(CC(c2cn(C)c3ccccc23)c2cn(C)c3ccccc23)c1C	cell growth or viability, MTS	20 µM, 24 h		inhibition	17.8%
[BH3-][P+]1(c2ccccc2)CCCCC1	cell growth or viability, MTT	72 h		IC50	> 100 µM
CC(=O)N[C@@H](CC(=O)O)C(=O)N[C@H](C(=O)N[C@@H](CCC(=O)O)C(=O)N[C@H](C(=O)NCC(=O)N[C@@H](CCC(=O)O)C(=O)N[C@H](C(=O)O)C(C)C)[C@@H](C)O)C(C)C	western blot	concentration not given, added: UVA		AP1 phosphorylation	inhibited
